Experimental data pooled from the literature.
Every numbered part comes from another study and shows a few of its results, in no order. ± marks the error that the study gave. Converted amounts (≈) assume the structure as drawn.
UniProt P31424, sequence (whole entry, looked up): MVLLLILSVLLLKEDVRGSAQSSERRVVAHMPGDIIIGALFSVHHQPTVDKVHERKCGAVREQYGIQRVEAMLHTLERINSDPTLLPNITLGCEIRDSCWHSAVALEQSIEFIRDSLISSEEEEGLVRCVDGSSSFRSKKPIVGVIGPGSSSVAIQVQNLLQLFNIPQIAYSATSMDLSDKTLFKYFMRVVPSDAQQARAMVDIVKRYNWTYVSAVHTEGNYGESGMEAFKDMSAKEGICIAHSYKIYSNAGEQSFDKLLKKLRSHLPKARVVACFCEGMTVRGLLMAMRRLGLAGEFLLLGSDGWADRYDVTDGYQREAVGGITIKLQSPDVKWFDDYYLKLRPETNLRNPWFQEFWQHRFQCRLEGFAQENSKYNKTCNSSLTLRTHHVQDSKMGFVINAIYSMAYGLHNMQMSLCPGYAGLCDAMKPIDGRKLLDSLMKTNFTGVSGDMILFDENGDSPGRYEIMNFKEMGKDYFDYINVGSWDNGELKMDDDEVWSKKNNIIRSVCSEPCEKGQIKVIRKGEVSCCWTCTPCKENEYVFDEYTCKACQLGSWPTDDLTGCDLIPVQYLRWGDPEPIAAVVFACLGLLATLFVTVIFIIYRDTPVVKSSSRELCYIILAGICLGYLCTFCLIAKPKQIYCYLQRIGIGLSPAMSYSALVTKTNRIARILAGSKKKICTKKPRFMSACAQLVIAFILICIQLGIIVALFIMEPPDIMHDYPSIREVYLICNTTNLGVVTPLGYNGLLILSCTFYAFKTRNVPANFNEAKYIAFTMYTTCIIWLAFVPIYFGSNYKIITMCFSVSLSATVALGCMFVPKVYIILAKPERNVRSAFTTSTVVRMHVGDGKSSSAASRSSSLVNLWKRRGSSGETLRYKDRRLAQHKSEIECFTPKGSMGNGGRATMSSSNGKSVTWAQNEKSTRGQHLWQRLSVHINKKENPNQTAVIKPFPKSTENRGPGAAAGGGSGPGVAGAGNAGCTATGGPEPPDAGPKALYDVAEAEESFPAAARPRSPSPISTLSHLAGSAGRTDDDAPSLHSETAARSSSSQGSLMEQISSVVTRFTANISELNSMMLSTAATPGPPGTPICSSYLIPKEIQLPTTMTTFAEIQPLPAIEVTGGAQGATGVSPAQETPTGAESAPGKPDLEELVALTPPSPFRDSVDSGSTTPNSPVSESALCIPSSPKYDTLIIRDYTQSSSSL

Sample 1 — cell line: MV4-11 AML cells; quantity: IC50
NC1CC1c1ccc(NC(=O)C(NC(=O)OCc2ccccc2)c2ccccc2)cc1 (stereo not shown): 52.3 ± 8.9 µM
NC1CC1c1ccc(NC(=O)Cc2ccc3ccccc3c2)cc1 (stereo not shown): 7.8 ± 1 µM
CC(C)CC(NC(=O)OCc1ccccc1)C(=O)Nc1ccc(C2CC2N)cc1 (stereo not shown): 16.9 ± 2.5 µM

Sample 2 — time: 18 h; temperature: 37 °C; quantity: MIC
SMILES: CC[C@H](C)[C@H](NC(=O)[C@H](C)NC(=O)[C@H](CCC(=O)O)NC(=O)[C@H](Cc1c[nH]cn1)NC(=O)[C@@H](NC(=O)[C@H](CCCCN)NC(=O)[C@H](CCC(N)=O)NC(=O)[C@H](Cc1ccccc1)NC(=O)[C@@H](NC(=O)[C@H](CCCCN)NC(=O)[C@H](CCCCN)NC(=O)[C@H](CC(C)C)NC(=O)[C@H](C)NC(=O)[C@H](CC(N)=O)NC(=O)[C@@H](N)CC(C)C)C(C)C)[C@@H](C)CC)C(=O)N[C@@H](CCCCN)C(N)=O
Bacillus subtilis; KCTC 1998: 4 µM (≈ 7.52 µg/mL)
Listeria monocytogenes; broth microdilution; KCTC 3710: 16 µM (≈ 30.1 µg/mL)
Escherichia coli; CCARM 1238, resistant: 4 µM (≈ 7.52 µg/mL)
Pseudomonas aeruginosa; broth microdilution; ATCC 27853: 8 µM (≈ 15 µg/mL)

Single results of other studies
TTR: Transthyretin (TTR, Homo sapiens, UniProt P02766)
CC[C@H](C)[C@H](NC(=O)[C@H](Cc1ccc(O)cc1)NC(=O)[C@@H]1CCCN1C(=O)[C@H](CCCNC(=N)N)NC(=O)[C@H](CCCNC(=N)N)NC(=O)[C@@H]1CCCN1C(=O)[C@H](CCCCN)NC(=O)[C@H](CC(N)=O)NC(=O)[C@H](CCC(=O)O)NC(=O)[C@H](Cc1ccc(O)cc1)NC(=O)[C@H](CC(C)C)NC(=O)[C@H](CCC(=O)O)NC(=O)CCOCCOCCOCCN=[N+]=[N-])C(=O)N[C@@H](CC(C)C)C(=O)O
Kd (TTR; binding): > 10000 nM

N#Cc1cnc(Nc2nc3ccccc3o2)nc1-c1cccnc1
maximum response (Metabotropic glutamate receptor 5 (Grm5, Rattus norvegicus, UniProt P31424); calcium mobilization, negative allosteric modulator, cell-based; added: glutamate at EC80; reference: maximal glutamate response): 2.1 ± 0.7%

Cc1n[nH]c(C)c1CCCOc1cc(OCCCc2cn(CCOCCOCCOCCC(=O)N[C@@H](CCCNC(=N)N)C(=O)NCC(=O)N[C@@H](CCCCN)C(=O)Nc3ccc4c(C)cc(=O)oc4c3)nn2)cc(C(=O)O)c1
Kd (TTR; binding): 172 nM

Some of these lines once more (single results of other studies):
N#Cc1cnc(Nc2nc3ccccc3o2)nc1-c1cccnc1
maximum response (Metabotropic glutamate receptor 5 (Grm5, Rattus norvegicus, UniProt P31424); calcium mobilization, negative allosteric modulator, cell-based; added: glutamate at EC80; reference: maximal glutamate response): 2.1 ± 0.7%

Cc1n[nH]c(C)c1CCCOc1cc(OCCCc2cn(CCOCCOCCOCCC(=O)N[C@@H](CCCNC(=N)N)C(=O)NCC(=O)N[C@@H](CCCCN)C(=O)Nc3ccc4c(C)cc(=O)oc4c3)nn2)cc(C(=O)O)c1
Kd (TTR; binding): 172 nM
